Measurements gathered from unrelated publications.
Every numbered part comes from another study and shows a few of its results, in no order. Positions count from the first letter of the parent shown.

Set 1 — technique: RNA Bind-n-Seq; molecule type: RNA; sample: in vitro; concentration: 365 nM; reference: no-protein control; reading: higher = stronger binding
Target: RNA binding protein fox-1 homolog 2, RRM domain, GST-SBP tag (RBFOX2, Homo sapiens, UniProt O43251-10, residues 100-194)
Setting: natural RNA segment, single round, ends assumed
Shared flanks, not repeated: GGGAGUUCUACAGUCCGACGAUC … UGGAAUUCUCGGGUGCCAA
Residues (chain): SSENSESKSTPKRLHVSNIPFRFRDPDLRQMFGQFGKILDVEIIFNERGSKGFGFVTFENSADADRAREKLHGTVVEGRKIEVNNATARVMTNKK
Strand | RBNS enrichment (R)
AUUGGUCUUAGUGCGUUUGUGCCCUUUGUUCUGGUCUGACUCUUGCGAAUCUCAGAGCAGGAGAAGUUGCAGCUUACUGAUCCCUCAGUGCUCACAGUACUCAUGUGGGG | 0.316
UUUCUGUUGUCCUCUGCCUAUGUGGAGUUGACAGGGUUUGGCCUGCAGAUGUGUCUGGACUUGAGCCCAGUGCUUUGGGGCCUUGAGACUCCAGCGACUGCACACCCGCU | 0.427
AUGCUUUGUAUUUCUUUCUUUAAAAAAUUUACUUUAAAGAAGAAGCCACUUGAACCUUCAAUAAAGGCUGUUGCCUAAACAUGGCGUACUUCAUCUGUUCCCGCCUCUGC | 0.211
CAGAGGGCGACUGUACCAAGGCCACACCAGCUGACCAGCACACCUCUAUCCUUUUGAGCUCUUCUGUCUUUUUAUAGUAAGCUUCCUCCACCUGUGUUGCUUUUGUAACU | 0.522
CCCCAAGAUCUCCAGUUUUAGAAGAGACCUGCACAUAAGAGGACUUCAUGUCAAGAUCACUACAACACCAUCUCUUCCAUUCACAAAGUUGAGUCUGUUCCUUUCAUCUA | 0.361
AGCUCUGAAAUUUGAAAGUCUACGAAGAAAGCCUGGGUUCAUCAGCUGCCCAGCCCCACCUCUCCACUGAGCGCUCUCUCUCUCUCCAUCUCCCUCUCUCCCUCUUUCCC | 0.897
UCAAGGAAACAGUGUGGUGCAAGUACUGCUGUUCUAGCCCCCAAAGAGUUUUCUGUACAAAAUUUUGAGAACCAAUAAAGAUGGAAGGGAGAACUUGGAAUGUUUGAACC | 0.697
GUAAACCUGUUUUAGAUAUCAUACUGUUAAUAUUUUAUUGAAAAUUUAUUUCAGAGCGGAGAAACUUAAGCUAAAGUCUGUUAUACAGAAUUGAAAGCCUUCGUAUCUUG | 0.437
CGCCCUGCUGCCACCCAGUGACUGGCAGGGCCGAGCCAGCAUUCCACCCCACCUUUUUCCUUCUCCCCAAUUACUCCCCUGAAUCAAUGUACAAAUCAGCACCCACAUCC | 1.92
CCACACACCGUGUACCCAUAGGGCCCCAAAUGUGGGGUCACAUGGUCUUGAAUUUUGUUGGUUACAUAUGCCUUUUUGUUGUUGUUUGUCUUCACUUUUGAUAUAUAAAC | 0.62
GGCUGAGUCCAGCUGUUCUUUAAGAACAGCAGUUUCAGCUCUGACCAUUCUGAUUCCAGUGACACUUGUCAGGAGUCAGAGCCUUGUCUGUUAGACUGGACAGCUUGUGG | 10.2
AAACAUCCGACAGUUUGAAUUUAUAGUGUUGAUGGAAGAAAUCAUUUUUAAUGUGUACUGUAAAACUUGAAAUACUCAGGAGCUGAGUGAAUAUGUUUGUUGCUACUUAC | 0.831

Set 2 — technique: universal PBM; molecule type: double-stranded DNA, one strand shown; sample: in vitro; concentration: 600 nM; reading: higher = stronger binding
Target: Sal-like protein 4, full length isoform A (SALL4, Homo sapiens, UniProt Q9UJQ4, residues 1-1053)
Sequence of UniProt Q9UJQ4 (whole entry, looked up): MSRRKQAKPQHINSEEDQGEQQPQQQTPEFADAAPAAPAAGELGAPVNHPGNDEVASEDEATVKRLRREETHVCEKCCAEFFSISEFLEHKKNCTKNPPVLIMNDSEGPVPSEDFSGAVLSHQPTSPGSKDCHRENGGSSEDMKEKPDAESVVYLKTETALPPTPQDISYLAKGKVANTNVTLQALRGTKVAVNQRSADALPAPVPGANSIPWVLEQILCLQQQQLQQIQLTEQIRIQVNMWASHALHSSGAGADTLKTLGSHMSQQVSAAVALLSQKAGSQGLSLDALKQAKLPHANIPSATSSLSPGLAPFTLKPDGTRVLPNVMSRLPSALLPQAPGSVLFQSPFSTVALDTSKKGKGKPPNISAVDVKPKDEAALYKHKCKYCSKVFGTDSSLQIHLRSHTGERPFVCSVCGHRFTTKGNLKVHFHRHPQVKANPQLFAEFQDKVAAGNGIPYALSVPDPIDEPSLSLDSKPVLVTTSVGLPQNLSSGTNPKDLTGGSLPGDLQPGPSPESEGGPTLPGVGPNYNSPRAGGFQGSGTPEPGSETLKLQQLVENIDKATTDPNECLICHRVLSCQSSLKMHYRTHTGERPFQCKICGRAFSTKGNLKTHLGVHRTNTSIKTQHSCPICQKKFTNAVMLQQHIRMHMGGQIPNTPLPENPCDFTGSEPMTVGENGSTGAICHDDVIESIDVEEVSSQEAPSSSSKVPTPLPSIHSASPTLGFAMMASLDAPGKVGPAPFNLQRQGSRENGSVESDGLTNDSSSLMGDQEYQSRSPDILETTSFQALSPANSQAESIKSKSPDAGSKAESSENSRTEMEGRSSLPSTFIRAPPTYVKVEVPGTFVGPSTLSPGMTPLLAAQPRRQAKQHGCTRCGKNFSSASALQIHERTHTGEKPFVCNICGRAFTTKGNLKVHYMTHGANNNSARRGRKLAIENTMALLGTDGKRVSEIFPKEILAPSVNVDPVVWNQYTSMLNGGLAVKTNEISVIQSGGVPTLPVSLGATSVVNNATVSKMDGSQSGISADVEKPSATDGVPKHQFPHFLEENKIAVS
Setting: 8-mer, flanks averaged, mean of replicates
Strand | E-score
CAGGCACC | -0.288
CAGTTGAA | -0.0615
GCGGGTAC | -0.154
ACTACCAT | 0.139
CCACGTCA | -0.0444
AGATCAAA | 0.112
GTTGCGAA | 0.0186
GACGAAAC | -0.078
AAATAATT | 0.431
CACTAATG | 0.112
CCTGACTA | 0.101
GAAATCTC | -0.0291
AGTACCGA | -0.122
GCAAGGGA | -0.0682
CGCGGGCC | -0.425
GAGCGGAA | -0.0634
GCCATCCA | -0.139
AGAAATTA | 0.356
CAGCTGAA | -0.0579
CGGTTGCA | -0.225
TGGAAGAA | 0.212
ATAGTCAT | 0.192
AGATAAAT | 0.286
ACAAATTA | 0.32
CGTCCTCC | -0.134

Set 3 — technique: protein binding microarray; molecule type: double-stranded DNA, one strand shown; sample: in vitro; concentration: not given; reference: not given; reading: higher = stronger binding
Target: Histone acetyltransferase KAT6A, winged helix 1, GST fusion (KAT6A, Homo sapiens, UniProt Q92794, residues 1-85)
Setting: 8-mer, flanks averaged, mean of 2 arrays, mostly near background
Target sequence (chain): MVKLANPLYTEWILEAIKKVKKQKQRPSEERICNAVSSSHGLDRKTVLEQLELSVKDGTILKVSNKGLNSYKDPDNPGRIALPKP
Strand | E-score
AAGTCAAC | -0.269
CGTAAACC | 0.182
CACCCTTA | -0.179
CATTACCG | 0.157
AGCTGCAC | -0.0391
CTGGGGAA | -0.19
CGAGGTAA | 0.0642
CTAGGGGA | -0.215
ACCCTTCA | -0.156
CTGATTGC | -0.104
AGGTAACG | -0.0299
GTCGCAAA | 0.232
AGCAAGTC | -0.0712
CTGGTGGA | -0.146
CTATACAC | 0.00865
GATCTTTA | -0.00883
GCGTACCC | 0.224
AGTTCGTC | -0.0502
CTGCCAAC | -0.206
CTCTCCCA | -0.221
CATAAAAC | -0.00654
AGAGAACA | -0.117
CTCGCTAA | 0.0606
ATTCTCCC | -0.229
AGTGGCGG | 0.219

Set 4 — technique: DHFR PCA, deep sequencing; sample: yeast; with: (+)-ABA 0.39 µM; reference: wild-type fitted maximum; reading: higher = stronger binding
Target: ABI1, truncated, D143A, DHFR fusion (Arabidopsis thaliana)
Setting: methotrexate growth selection, single substitutions
Starting sequence: PYL1, truncated, DHFR fusion (Arabidopsis thaliana); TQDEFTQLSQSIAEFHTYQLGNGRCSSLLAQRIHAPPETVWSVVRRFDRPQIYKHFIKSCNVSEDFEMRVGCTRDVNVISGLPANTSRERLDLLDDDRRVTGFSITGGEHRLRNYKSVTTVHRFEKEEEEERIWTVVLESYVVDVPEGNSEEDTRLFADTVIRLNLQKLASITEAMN; partner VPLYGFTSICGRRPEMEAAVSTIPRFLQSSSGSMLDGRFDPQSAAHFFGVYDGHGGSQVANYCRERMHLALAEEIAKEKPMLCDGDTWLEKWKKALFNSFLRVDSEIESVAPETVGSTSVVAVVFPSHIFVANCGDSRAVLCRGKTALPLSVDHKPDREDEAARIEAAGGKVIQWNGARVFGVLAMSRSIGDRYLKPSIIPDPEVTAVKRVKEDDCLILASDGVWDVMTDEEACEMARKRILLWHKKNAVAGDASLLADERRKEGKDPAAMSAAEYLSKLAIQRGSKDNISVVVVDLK
Substitution | relative binding score [%]
V118F | -7.96
S171Q | 60.5
Y141W | -30
I12L | 2.02
V76R | -7.81
N114G | 18
E14P | -0.801
T1G | 40.3
T73N | 3.59
I105K | 2.17
K58R | 43.6
Q51Y | -9.79
L94D | -16.3
V161H | 42
E139G | -7.08
A35T | 5.04
T120P | 0.579
A158R | -5.03
G21K | 44.5
F66G | 32.1
R98V | -1.58
E109R | 6.81
N22C | 23

Set 5 — target: CCND3, cyclin fold, Cln2 fusion (human); technique: yeast growth competition, sequencing; sample: yeast; setting: strong parent motif; reference: not given; reading: higher = stronger binding
Starting sequence: INSM1 docking peptide (human); PKAIRKLHFEDEV
Substitution | normalised enrichment score
PKAIRKLHFGDEV [E10G] | 1.17
PKAWRKLHFEDEV [I4W] | 0.361
PKAIRKTHFEDEV [L7T] | 0.509
PKAIRKHHFEDEV [L7H] | -0.078
PKAIRKLHTEDEV [F9T] | -0.00348
PKAIRKLHREDEV [F9R] | 0.0236
PKAIRKLHFEIEV [D11I] | 0.504
PKAIRKLHHEDEV [F9H] | 0.551
PKAIRKLHSEDEV [F9S] | -0.0333
PKAVRKLHFEDEV [I4V] | 0.641
PKALRKLHFEDEV [I4L] | 0.29
PKAIRKLHDEDEV [F9D] | -0.0724
PKAIRKAHFEDEV [L7A] | 0.21
PKAIRKKHFEDEV [L7K] | -0.0913
PKAIRKLHFEDFV [E12F] | 0.576
PDAIRKLHFEDEV [K2D] | 0.3
PKAIRKLYFEDEV [H8Y] | 1.5
PKAIRKEHFEDEV [L7E] | 0.264
PKAIRGLHFEDEV [K6G] | -0.0423
PKAIRKRHFEDEV [L7R] | 0.454
PKAIRKLHFQDEV [E10Q] | 0.886
PKAIRKLHFENEV [D11N] | 0.657
